# Results gathered from unrelated publications.
# Parts stem from different laboratories: compare values within a part only.

# Block 1
# Molecule: PhoQ, residues 284 288 289 292 302 303 ALSMDL
# Technique: Sort-seq
# Item: YFP reporter
# Matrix: E. coli
# Setting: PhoQ-PhoP variant library
# Together with: 10 µM Mg2+
# Relative to: high Mg2+ state
# Direction: higher = stronger signaling
target,fold induction
"PhoP, residues 12 14 15 18 19 STHWV (Escherichia coli, UniProt P23836)",26.4
"PhoP, residues 12 14 15 18 19 QYCSL (Escherichia coli, UniProt P23836)",10.2
"PhoP, residues 12 14 15 18 19 SHWTV (Escherichia coli, UniProt P23836)",24.4

# Block 2
# Target: Interferon regulatory factor 3, full length, phosphomimetic (IRF3, Homo sapiens, UniProt Q14653, residues 1-427, S386D/S396D/S398D/S402D/T404D/S405D)
# Technique: protein-binding microarray
# Molecule type: double-stranded DNA, one strand shown
# Matrix: in vitro
# Tested at: 2540 nM top
# Setting: 60-bp whole probe
# Together with: salmon DNA 0.4 mg/ml
# Relative to: random background probes
# Direction: higher = stronger binding
# Constant ends, left off below: GCCTAGCAC … GTGCTAGGTCTTGATTCGCTTGACGCTGCTG
# Residues (chain): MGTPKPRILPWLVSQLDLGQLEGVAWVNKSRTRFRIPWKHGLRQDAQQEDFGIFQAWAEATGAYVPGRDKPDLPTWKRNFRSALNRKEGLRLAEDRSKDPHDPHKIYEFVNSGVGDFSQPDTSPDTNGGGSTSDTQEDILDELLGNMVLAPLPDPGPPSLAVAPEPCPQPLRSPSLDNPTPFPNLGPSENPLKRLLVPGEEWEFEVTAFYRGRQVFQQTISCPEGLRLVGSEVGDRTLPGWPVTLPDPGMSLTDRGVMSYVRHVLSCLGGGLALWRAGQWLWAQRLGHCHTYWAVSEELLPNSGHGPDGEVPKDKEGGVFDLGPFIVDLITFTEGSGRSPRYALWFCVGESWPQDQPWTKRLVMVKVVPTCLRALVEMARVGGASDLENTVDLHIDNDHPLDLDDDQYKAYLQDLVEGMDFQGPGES
Oligonucleotide,fitted relative affinity
TCAGTTATAATATTATTACT,0.608 z-score
TCATTTTAGCTTCTCAAACT,1.81 z-score
TTAGGTCTCCTTTTCGTTTA,5.49 z-score
GACGATATCAGACAGGAGAC,0.0897 z-score
GACGGTATCAGACTGGGGAC,1.44 z-score
GACGGCCTGGGACTGGGGAC,-1.24 z-score
CTTTCTATGTCTGTTTTTGC,4.72 z-score
GACGCTATCCTTTTCCTGAC,4.67 z-score

# Block 3
# Target: RNA binding protein fox-1 homolog 2, RRM domain, GST-SBP tag (RBFOX2, Homo sapiens, UniProt O43251-10, residues 100-194)
# Technique: RNA Bind-n-Seq
# Molecule type: RNA
# Matrix: in vitro
# Tested at: 365 nM
# Setting: natural RNA segment, single round, ends assumed
# Relative to: no-protein control
# Direction: higher = stronger binding
# Constant ends, left off below: GGGAGUUCUACAGUCCGACGAUC … UGGAAUUCUCGGGUGCCAA
# Target sequence (chain): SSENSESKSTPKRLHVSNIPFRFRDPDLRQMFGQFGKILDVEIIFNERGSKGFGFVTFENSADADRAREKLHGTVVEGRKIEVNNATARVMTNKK
Oligonucleotide,RBNS enrichment (R)
AGAAAUCCACAUGCUUCAGAAUUCAGAGGGUUCAGGGAAUGGUUUCGGAUAGUAGGCUCUCCCUGCUCCCUUCUCUACAGGAAUCUCUGGAAAACUAUCAGAAGACAAAG,0.314
UGGCAAAGGUUUUCUGGAAAGAACAAGUUUCUCAAAGGACUUUCUUCCUCUAGAAUGUUCAUUUUAUGAGAUCGCUAUCUGUAAGUCCAGUUGGAUUACAGGAAUACUUG,0.255
UGGCAUGUUAGUGAGGAGUUCUGAUAUUAAGCACACACACACAUGCACACAAAUGGACUUCUCUGAAGCUGUGUUUAGUGAAAUGAGCUCAAGUACAUGAAUGUUAGUUG,3.14
GUGUGUACUGCCUGCUGGACUGAAGAGACAUGCCUGUCUUUAUGUGAGAGGCUGGCUUUUGUUUACUAAGUUGUAGCAUUUAGACAUCCCAUGGCAGUCUAACUUAGCCU,0.698
AGAGAGUUACAGGAAUAGAGAACCUGUUUUUGAGACAUGUUGUCAUUUUGAUGAGAUAACCUUCAUCUCGUUACUGAAAUAUCUAACUUCAGCUAGAUAUGAGCUAUGCA,1.12

# Block 4
# Target: Histone acetyltransferase KAT6A, winged helix 2, GST fusion (KAT6A, Homo sapiens, UniProt Q92794, residues 85-181)
# Technique: protein binding microarray
# Molecule type: double-stranded DNA, one strand shown
# Matrix: in vitro
# Tested at: not given
# Setting: 8-mer, flanks averaged, mean of 2 arrays, mostly near background
# Relative to: not given
# Direction: higher = stronger binding
# Residues (chain): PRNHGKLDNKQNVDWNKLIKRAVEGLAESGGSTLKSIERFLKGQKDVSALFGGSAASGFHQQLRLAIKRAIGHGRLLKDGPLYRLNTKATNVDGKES
Oligonucleotide,E-score
AGCTGGGG,-0.014
CGGCCATC,-0.0184
CACGACCG,-0.0751
ACGCCCCT,-0.135
CTAGTGCC,0.0964
TGGGATAA,0.000275
CCGTTAGG,0.00685
ATGCGGTA,-0.189

# For quick reference, copied from above (block 1):
target,fold induction
"PhoP, residues 12 14 15 18 19 STHWV (Escherichia coli, UniProt P23836)",26.4
"PhoP, residues 12 14 15 18 19 QYCSL (Escherichia coli, UniProt P23836)",10.2
"PhoP, residues 12 14 15 18 19 SHWTV (Escherichia coli, UniProt P23836)",24.4
